Experimental data of several laboratories.
Lines come from different studies, so protocols differ. ± marks the error that the study gave.

| SMILES | organism | test | system | setting | EC50 |
| --- | --- | --- | --- | --- | --- |
| Cc1ccc(S(=O)(=O)N2C(=O)CSC2c2ccccc2Cl)cc1 (stereo not shown) | herpes simplex virus 1 | viral cytopathicity | HEL, KOS | – | > 100 µM |
| Nc1ncnc2c1ncn2[C@@H]1CS[C@H](CO)[C@H]1F | Coxsackievirus B3 | viral cytopathic effect | HeLa | – | > 100 mg/L |
| NC(=O)NO | human cytomegalovirus | viral spread, GFP reporter | MRC-5, BADrUL131-Y4 (AD169, GFP) | 14 d | 171 ± 46 µM |
| Cc1ccc(S(=O)(=O)N2C(=O)CSC2c2ccccc2)cc1 (stereo not shown) | herpes simplex virus 1 | viral cytopathicity | HEL, KOS | – | > 100 µM |
| O=C(NCc1ccc(F)c(Cl)c1)c1cn(Cc2ccc(F)cc2)cc(O)c1=O | Human betaherpesvirus 5 | viral replication, inhibitor | – | 7 days | 0.62 µM |
| Nc1nc(O)c2ncn(COC(CO)CO)c2n1 | human cytomegalovirus | cytopathic effect | HEL fibroblasts, Davis | – | 1.64 ± 0.22 µM |
| O=C(Nc1ccc(F)cc1)Oc1ccc[nH]c1=O | Alphacoronavirus 1 | viral replication, inhibitor | CRFK | 2 h | > 100 µM |
| N/C(=N\O)c1cc(O)c(O)c(O)c1 | human cytomegalovirus | viral spread, GFP reporter | MRC-5, BADrUL131-Y4 (AD169, GFP) | 14 d | 43 ± 5.5 µM |
| O=C(NCc1ccc(Cl)cc1F)c1cn(Cc2ccc(F)cc2)cc(O)c1=O | Human betaherpesvirus 5 | viral replication, inhibitor | – | 7 days | 0.55 µM |
| O=C(Cc1csc2nc(-c3ccc(Br)cc3)cn12)NN=C1CCCCC1 | feline herpesvirus | viral cytopathic effect | CRFK | – | > 100 mg/L |
| COc1ccc2c3c([nH]c2c1)[C@H](CO)N(Cc1ccccc1)CC31CCN(C(=O)Cc2ccccc2)CC1 | respiratory syncytial virus | cytopathic effect | HEp-2, A2 | 5 days, resynthesized sample | 10.3 µM |
| Nc1ccn(C[C@@H](CO)OCP(=O)(O)O)c(=O)n1 | human cytomegalovirus | cytopathic effect | HEL fibroblasts, Davis | – | 0.12 ± 0.03 µM |
| Cc1ccc(S(=O)(=O)N2C(=O)CSC2c2ccccc2O)cc1 (stereo not shown) | herpes simplex virus 1 | viral cytopathicity | HEL, KOS | – | > 100 µM |
| N#Cc1ccc(CNC(=O)c2cn(Cc3ccc(F)cc3)cc(O)c2=O)c(F)c1 | Human betaherpesvirus 5 | viral replication, inhibitor | – | 7 days | 1.2 µM |
| O=C(CN1c2c(n[nH]c2-c2cccc(Cl)c2)-c2ccccc2S1(=O)=O)NN=Cc1cccc(Cl)c1 | HIV-1 | viral replication | PBMC | – | > 10 µM |
| COC(=O)N[C@H](C(=O)N1CCC[C@H]1c1ncc(-c2ccc(-c3ccc(-c4cnc([C@@H]5CCCN5C(=O)[C@@H](NC(=O)OC)C(C)C)[nH]4)cc3)cc2)[nH]1)C(C)C | hepatitis C virus | viral replication, transient replicon | genotype 1a NS5A M28T | – | 0.0041 ± 0.00036 µM |
| CC(C)(C)[C@H](NC(=O)[C@@H](NC(=O)c1cnccn1)C1CCCCC1)C(=O)N1CC2(Cc3ccccc3C2)C1C(=O)NC(CC1CCC1)C(=O)C(=O)NC1CC1 (stereo partly shown) | Hepatitis C virus | viral replication, inhibitor | Huh-7 | replicon | 0.8 µM |
| O=C(N/N=C1\C(=O)Nc2ccc([N+](=O)[O-])cc21)N/N=C1\C(=O)Nc2ccc([N+](=O)[O-])cc21 | respiratory syncytial virus | viral replication | HeLa | – | > 100 µM |
| CC(=CC(=O)NCCCCNc1cc(C(F)(F)F)nc2c(C(F)(F)F)cccc12)C(=O)NCCCCNc1cc(C(F)(F)F)nc2c(C(F)(F)F)cccc12 | Zika virus | viral cytopathic effect, MTS | Vero | – | 0.85 µM |
| Cc1ccc2c(c1)/C(=N/NC(=O)N/N=C1\C(=O)Nc3ccc(C)cc31)C(=O)N2 | respiratory syncytial virus | viral replication | HeLa | – | > 100 µM |

| SMILES | organism | test | system | setting | EC50 |
| --- | --- | --- | --- | --- | --- |
| O=S(=O)(c1cccs1)N1CCCCN2[C@H](CO)[C@@H](c3ccc(/C=C/c4ccccc4)cc3)[C@@H]2C1 | respiratory syncytial virus | cytopathic effect | HEp-2, A2 | 5 days, resynthesized sample | 2.8 µM |
| COC(=O)c1c[nH]c2cc(CN3CCN(Cc4ccc(OC)cc4)CC3)ccc2c1=O | Plasmodium berghei | – | HepG2, liver stage | 44 h | 0.044 to 0.083 µM |
| O=C(C=Cc1ccc2ccccc2n1)c1cc(Cl)ccc1O | Alphacoronavirus 1 | viral replication, inhibitor | CRFK | 2 h | 2.34 µM |
| O=C(NCc1ccc(C(F)(F)F)cc1F)c1cn(Cc2ccc(F)cc2)cc(O)c1=O | Human betaherpesvirus 5 | viral replication, inhibitor | – | 7 days | 0.54 µM |
| COc1c(C)c2c(c(O)c1C/C=C(\C)CCC(=O)O)C(=O)OC2 | Zika virus | viral cytopathic effect, MTS | Vero | – | 1.2 µM |
| CN1c2ccc(-c3ccc(C#N)cc3)cc2[C@H]2[C@H](CCN2C(=O)c2cccc(F)c2)[C@@H]1CO | respiratory syncytial virus | cytopathic effect | HEp-2, A2 | 5 days, resynthesized sample | 1.2 µM |
| Nc1nc(F)nc2c1ncn2[C@@H]1O[C@H](CO)[C@@H](O)[C@@H]1O | human coronavirus NL63 | cytopathic effect, MTS | LLC-MK2 | 5 days | 8.89 µM |
| OC[C@@H]1[C@@H](O)[C@H](O)[C@@H](O)CN1CCCCCCOc1cc(F)ccc1F | bovine viral diarrhea virus | – | MDBK | 22 h | 1.3 ± 0.7 µM |
| CCN(CC)Cc1cc(Nc2ccnc3cc(Cl)ccc23)ccc1O | Dengue virus 2 | viral replication, plaque | BHK-21 | 72 h | 1.08 ± 0.09 µM |
| Cc1cccc(-c2ccc([C@@H]3[C@@H](CO)N4CCCCN(S(=O)(=O)c5cn(C)cn5)C[C@@H]34)cc2)c1 | respiratory syncytial virus | cytopathic effect | HEp-2, A2 | 5 days, resynthesized sample | 3.3 µM |
| CNC(=O)c1ccc(-c2cnn3ccc(C(=O)N(C)c4ccc(Cl)c(C(=O)O)c4)cc23)cc1 | Cryptosporidium parvum | cytopathic effect | HCT-8 | 48 h | > 20 µM |
| COc1cc(C=C2CCCC(=Cc3ccc(O)c(OC)c3)C2=O)ccc1O | dengue virus 2 | viral replication, plaque reduction | BHK-21 | – | 2.34 ± 0.21 µM |
| O=C(CN1c2c(n[nH]c2-c2cccc(Cl)c2)-c2ccccc2S1(=O)=O)NN=Cc1ccc(Cl)cc1Cl | HIV-1 | viral replication | PBMC | – | 19.6 µM |
| CCOC(=O)c1cn(Cc2ccc(F)cc2)ccc1=O | Human betaherpesvirus 5 | viral replication, inhibitor | – | 7 days | > 50 µM |
| Clc1ccc(Cn2c(CN3CCCC3)nc3ccccc32)cc1 | Hepatitis C virus | viral replication, inhibitor | Huh7.5, GETYPE1B | 72 h, replicon | 24 µM |
| O=C(Cc1csc2nc(-c3ccc(Br)cc3)cn12)NN=C1CCC(c2ccc(O)cc2)CC1 (stereo not shown) | feline herpesvirus | viral cytopathic effect | CRFK | – | > 100 mg/L |
| CCOC(=O)C(C)NP(=O)(COC(CF)CN1CN2C=C(c3ccc([N+](=O)[O-])cc3)NC2=NC1=O)NC(C)C(=O)OCC (stereo not shown) | herpes simplex virus 1 | cytopathic effect | HEL, KOS, TK-deficient, acyclovir-resistant | – | > 100 µM |
| Cc1ccc(S(=O)(=O)N2C(=O)CSC2c2ccccc2[N+](=O)[O-])cc1 (stereo not shown) | herpes simplex virus 1 | viral cytopathicity | HEL, KOS TK-deficient acyclovir-resistant | – | > 100 µM |
| N#CC1(C#N)C2C=CC(c3coc4cccc2c34)C1(C#N)C#N (stereo not shown) | Alphacoronavirus 1 | viral replication, inhibitor | CRFK | – | 7.75 µM |
| NC1=NC(=O)N(C[C@@H](CF)OCP(=O)(O)O)CN1 | herpes simplex virus 1 | cytopathic effect | HEL, KOS, TK-deficient, acyclovir-resistant | – | > 100 µM |

A few entries again:
| SMILES | organism | test | system | setting | EC50 |
| --- | --- | --- | --- | --- | --- |
| O=C(NCc1ccc(F)c(Cl)c1)c1cn(Cc2ccc(F)cc2)cc(O)c1=O | Human betaherpesvirus 5 | viral replication, inhibitor | – | 7 days | 0.62 µM |
| Nc1nc(O)c2ncn(COC(CO)CO)c2n1 | human cytomegalovirus | cytopathic effect | HEL fibroblasts, Davis | – | 1.64 ± 0.22 µM |
| O=C(Nc1ccc(F)cc1)Oc1ccc[nH]c1=O | Alphacoronavirus 1 | viral replication, inhibitor | CRFK | 2 h | > 100 µM |
| N/C(=N\O)c1cc(O)c(O)c(O)c1 | human cytomegalovirus | viral spread, GFP reporter | MRC-5, BADrUL131-Y4 (AD169, GFP) | 14 d | 43 ± 5.5 µM |
